# Experimental data of several laboratories.
# Every numbered part comes from another study and shows a few of its results, in no order.

# Sample 1
# Target: Interferon regulatory factor 5, full length, phosphomimetic (IRF5, Homo sapiens, UniProt Q13568-2, residues 1-514, S451D/S453D/S456D/S462D)
# Method: protein-binding microarray
# Form: double-stranded DNA, one strand shown
# Medium: in vitro
# Concentration: 940 nM top
# Setting: 60-bp whole probe
# Added: salmon DNA 0.4 mg/ml
# Baseline: random background probes
# Direction: higher = stronger binding
# Constant ends, left off below: GCCTAGCAC … GTCTTGATTCGCTTGACGCTGCTG
Sequence,fitted relative affinity [z-score]
GACGAACTGATTATCGAGACGTGCTAG,-0.262
TTAGGTATCGGGTCTGGGTTAGTGCTA,5.56
GATGGTCTCCTACTGCTGACGTGCTAG,-0.131
GACGATTTCTGTATCGAGACGTGCTAG,1.58
GACGATATCAGTCTCCAGACGTGCTAG,0.0312
TATATTATATATTTATGTATGTGCTAG,0.0898
AATTTGAGAACGGAAACCAAGTGCTAG,-0.0509
TTAGGTCTCGGACTGTGTTAGTGCTAG,0.859
TTAGGTTTCGGTATCGCTTAGTGCTAG,15.1
TCATGACTGGAGTCTGGAACTGTGCTA,-0.401
TTACGTATCGACTTTCGGTTAGTGCTA,5.44
GACGAACTGGGGTGTCGAGACGTGCTA,0.04
GACGGGCTGCTACTGCTGACGTGCTAG,-0.963
TTAGGTCTCGGTATCGGTAAGTGCTAG,6.98
GACGTTTCCCTTTTCCTGACGTGCTAG,1.9
TCATCTCCAGGGTTTCTCACTGTGCTA,0.613
GACGATTTGGGGACTGGAGACGTGCTA,0.0561
TCATATATCTTATCCTAACTGTGCTAG,1.19

# Sample 2
# Target: RNA binding protein fox-1 homolog 2, RRM domain, GST-SBP tag (RBFOX2, Homo sapiens, UniProt O43251-10, residues 100-194)
# Method: RNA Bind-n-Seq
# Form: RNA
# Medium: in vitro
# Concentration: 365 nM
# Setting: natural RNA segment, single round, ends assumed
# Baseline: no-protein control
# Direction: higher = stronger binding
# Constant ends, left off below: GGGAGUUCUACAGUCCGACGAUC … UGGAAUUCUCGGGUGCCAA
# Construct (chain): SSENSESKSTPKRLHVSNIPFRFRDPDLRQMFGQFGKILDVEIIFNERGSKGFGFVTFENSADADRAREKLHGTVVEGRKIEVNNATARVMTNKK
Sequence,RBNS enrichment (R)
CGGCCUGACCCGCAAUGGGCAGAGGGUGGGUGGGACCCCCUGCUGCAGGGCAGAGUUCAGGUCCACUGGGCUGAGUGUCCCCUUGGGCCCAUGGCCCAGUCACUCAGGGG,0.513
UGAUCUGUGAUUGCGGAUUUUCGGAGGACACACACGUUGGCACUUCUUGGUAGCCCUGGUUUGCAUUGCUUUGUGUUUCCACACCCGAGGCUGUGUGGGCGGGUGCAUGU,4.11
GAAAGCCGCUCUAUUUUGGUCUCUGUGAUAUUUUAAAUGCGUGACAGAAGCAAGCAAAUAAAGUCAGGAAGAAAUAUAUAUAUGAGAUAAUAUAGAUUGUAUUGAAAUCU,1.87
UGGCCCGGCCAGCCACCGUCCCCAGCACCCAAGCAUGCAAUUGCCUGUCCCCCCCGGCCAGCCUCCCCAACUUGAUGUUUGUGUUUUGUUUGGGGGGAUAUUUUUCAUAA,7.77
ACACAAACCUAAGCUAACAAAAUGACUGCAUUCGUCUCUUUUUUAAAGGUAGAGAUUAAACUGUAUAGACAGCAUAGGGAUGAAAGGAACCAAGCGUUUCUGUGGGAUUG,0.298
GGCUUGCUGUGGGACGCCCUCGUACUUUGCUCUCCUUGCGGGUGGUUGCCGAGCCGAGAGCAUUGGAUCCUCCCCGACUGUGGCUAGUUGUCUGUCCGGUGGCUGGGAGG,0.599
CAAGCUGAGUUUCCUCUUCUGAGGCAGAGGCUGGAGCAGUUCUUUUUCAGUUCUCAUCCUCUCCAUCCCAAUCCAGUAUAUCAAUCAACUCUAACUCGGAGACGUCUAGC,0.285
CCAACCUGGUAAAACUCCACUUCAGAUGGACCUGAGACCACAUCUGGCUGCGCCAAUGCCCCAGCUGCUUUGUGGGCAGGCUCUACUAGUUGGCGAGGCACCUGCACAUU,0.636
CCAGCGAGCUGUAGGCCAUGUCACAGAACCGAGGCAGAGCAGUGCUUUGAGUAGGACAACAAGGAACAUUAAAGAAGGAAAGUUCUAGAACAAUCUUUUGCUAAAAAAAA,0.458
CCCCAACAGACACUGACAGGGUCCAUGGAAUUCUUCGGGAAAUCCUCCAAGGACUCUUGUCAGCUGUGUUGGAAGCCAAAGCCAGCUUAGUGGGACUUCCGCGUCUCUCC,0.249
AAUUCCCCACAAGCGCCUGCGCCAGCCCCCUCCCUGCUACCUCACAGCCUGGGAUGGCUCCAACUUCUUGCCCCUUCGGACCAAGUCCUGUGGCCAUGAAGUCGUCUCCU,0.36
UGGCUUUCAGGGUGUUCUGUGAAUCUCCUCAUGAAUACUUUAGGGUAGGGGAGGGAAGGGAGUGAGUGAUGCUCAGGGGCUGUCAAAGUGACUGCGUUCAUCAGUUUUAC,0.506

# Sample 3
# Target: Sal-like protein 4, full length isoform A (SALL4, Homo sapiens, UniProt Q9UJQ4, residues 1-1053)
# Sequence of UniProt Q9UJQ4 (whole entry, looked up): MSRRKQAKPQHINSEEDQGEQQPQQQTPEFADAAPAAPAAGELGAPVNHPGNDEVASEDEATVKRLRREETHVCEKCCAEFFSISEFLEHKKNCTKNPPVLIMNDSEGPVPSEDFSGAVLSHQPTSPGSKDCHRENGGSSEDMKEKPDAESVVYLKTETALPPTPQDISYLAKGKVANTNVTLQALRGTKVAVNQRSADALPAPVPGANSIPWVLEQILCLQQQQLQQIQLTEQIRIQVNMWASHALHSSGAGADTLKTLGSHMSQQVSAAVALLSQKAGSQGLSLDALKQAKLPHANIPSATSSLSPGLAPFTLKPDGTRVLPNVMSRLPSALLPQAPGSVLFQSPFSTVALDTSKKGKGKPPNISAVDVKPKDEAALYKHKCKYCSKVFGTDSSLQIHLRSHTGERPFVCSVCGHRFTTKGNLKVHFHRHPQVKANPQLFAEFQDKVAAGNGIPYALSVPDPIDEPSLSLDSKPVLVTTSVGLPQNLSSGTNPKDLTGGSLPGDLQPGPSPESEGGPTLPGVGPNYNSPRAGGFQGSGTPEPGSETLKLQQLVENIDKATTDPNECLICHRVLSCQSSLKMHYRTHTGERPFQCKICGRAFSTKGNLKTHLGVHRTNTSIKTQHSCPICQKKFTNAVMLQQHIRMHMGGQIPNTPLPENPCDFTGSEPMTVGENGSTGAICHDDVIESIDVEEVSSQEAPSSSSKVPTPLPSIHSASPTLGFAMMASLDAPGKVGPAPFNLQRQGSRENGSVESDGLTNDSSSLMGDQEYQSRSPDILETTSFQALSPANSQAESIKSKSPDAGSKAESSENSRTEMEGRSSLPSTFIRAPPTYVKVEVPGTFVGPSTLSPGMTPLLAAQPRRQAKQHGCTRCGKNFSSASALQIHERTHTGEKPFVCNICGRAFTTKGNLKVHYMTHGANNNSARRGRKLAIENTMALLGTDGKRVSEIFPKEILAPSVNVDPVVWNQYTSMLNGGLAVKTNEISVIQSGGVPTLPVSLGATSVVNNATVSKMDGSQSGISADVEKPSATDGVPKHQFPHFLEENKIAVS
# Method: universal PBM
# Form: double-stranded DNA, one strand shown
# Medium: in vitro
# Concentration: 600 nM
# Setting: 8-mer, flanks averaged, mean of replicates
# Direction: higher = stronger binding
Sequence,E-score
ACTGAAAA,0.212
GGAGGTAC,-0.272
ACAATGGG,0.023
AGAGTTAA,0.127
AAGATATG,0.3
AGCGCACG,-0.296
GACTAGAA,0.0204
CTATCCGA,-0.0859
CGACCCCA,-0.165
GGCCGCCC,-0.436
CTGCCGTA,-0.066
ACGATGAT,0.0361
CCTTATGC,0.14
CCAGAGTC,-0.169
GAGCTCCA,-0.29
CGATCCAC,-0.174
AGATCATG,-0.0857
ATTTAAAT,0.366
GTGACAGA,-0.056
AGCAATAT,0.374
ATTTCCCA,0.142
ACATGCTC,0.0425
GGAGCGAC,-0.145
CATAGGGA,0.112
CCTGACAG,-0.0724

# Sample 4
# Target: Histone acetyltransferase KAT6A, winged helix 1, GST fusion (KAT6A, Homo sapiens, UniProt Q92794, residues 1-85)
# Method: protein binding microarray
# Form: double-stranded DNA, one strand shown
# Medium: in vitro
# Concentration: not given
# Setting: 8-mer, flanks averaged, mean of 2 arrays, mostly near background
# Baseline: not given
# Direction: higher = stronger binding
# Target sequence (chain): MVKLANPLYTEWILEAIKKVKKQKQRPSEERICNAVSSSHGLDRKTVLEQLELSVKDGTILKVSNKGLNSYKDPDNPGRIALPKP
Sequence,E-score
ATTATAAG,-0.125
GCTTCCTA,-0.0212
CAAAGAAA,-0.22
ACTGCTGG,-0.12
AATTGTAG,-0.151
GTCTTTTA,-0.0749
CCTCAGCA,-0.016
ACTGTGCT,-0.102
TAACATTA,-0.0698
GACCGAAA,-0.0237
GCAGTGGA,-0.103
CCGAGGAG,-0.0602
ACTATTAC,0.0751
CCCCCTAC,-0.0775
AGGTATAA,-0.133
ATAGGTTG,-0.2
CATAACGG,0.179
CGTATGAG,0.0318
AAACTACA,-0.126
AAATTAAG,-0.142

# Sample 5
# Target: Centromere-binding protein 1, full length, N-terminal tag (CBF1, Saccharomyces cerevisiae, UniProt P17106, residues 1-351)
# Sequence of UniProt P17106 (whole entry, looked up): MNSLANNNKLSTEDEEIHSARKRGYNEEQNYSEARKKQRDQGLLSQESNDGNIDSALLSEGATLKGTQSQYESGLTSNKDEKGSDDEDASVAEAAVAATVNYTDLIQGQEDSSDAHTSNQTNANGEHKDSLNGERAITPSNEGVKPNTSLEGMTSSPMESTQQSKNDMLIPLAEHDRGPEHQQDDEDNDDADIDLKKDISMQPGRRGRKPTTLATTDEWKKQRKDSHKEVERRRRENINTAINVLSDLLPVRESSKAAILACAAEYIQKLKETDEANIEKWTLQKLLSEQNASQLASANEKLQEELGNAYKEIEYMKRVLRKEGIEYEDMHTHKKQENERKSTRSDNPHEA
# Method: protein-binding microarray
# Form: double-stranded DNA, one strand shown
# Medium: in vitro
# Concentration: 0.8 µM
# Setting: whole 60-bp probe, no competitor
# Direction: higher = stronger binding
# Constant ends, left off below: … GTCTTGATTCGCTTGACGCTGCTG
Sequence,fluorescence intensity
CTATATTATTGACGTGGTCGCAGAACAGTTCGGTTC,528 a.u.
CTAGTTCCGGGTAGTCACATGGAAACAATGGCATTC,2170 a.u.
TGTACGAAGCTATCAGAAGTCACTATAGTAGTTAGG,552 a.u.
GAAACAAAACAATGGCGTGGGGTGATGAAATAATAG,551 a.u.
TGTACGAAGCTATTTCACCATATTATAGTAGTTAGG,557 a.u.
TGTACGAAGCTATGAGATGTGACTATAGTAGTTAGG,537 a.u.
CTACCCACGCCGCGTGGTGCCTTTGTTCCTTGGTTC,573 a.u.
CCTAACTACTATAATCTCAACTGATAGCTTCGTACA,514 a.u.
CTAGGTGACAAAGGTGATGCAATTACTGACACATTC,555 a.u.
CTAGCCATTACCGCCGACATCACTGCTCTTTCTTTC,548 a.u.
CTAGGGGATTTCCCACGTGCTCCAACAAACGGTTTC,3970 a.u.
TGTACGAAGCTATATTAGCCATCTATAGTAGTTAGG,507 a.u.
CTACCCTTTTCTGATCTGATGTTCTCACGCTCTTTC,540 a.u.
GAATCTATTATCAAGCATGATCACCATCATCAATAG,594 a.u.
GAATATAAACACGATCACGTTTCACTCTTGAAATAG,2110 a.u.
TGTACGAAGCTATTGGACGTGGTTATAGTAGTTAGG,518 a.u.
TGTACGAAGCTATGTCTCGTGGGTATAGTAGTTAGG,647 a.u.
GAAAATTGGCACTTCAACGTGTATGGAAGTTGCTAG,529 a.u.
TGTACGAAGCTATTGCAGGTGAATATAGTAGTTAGG,535 a.u.
CTACTCATATGTGCTCTCGTGCTTGTTTATCCTTTC,675 a.u.
CTACTTGTCTCAGGTCACACCATTCACGATTCCTTC,802 a.u.
GAAATCTGTGCCCATGTGATCTGTACCTTTTTTTAG,3070 a.u.

# Repeated from above (sample 1):
Sequence,fitted relative affinity [z-score]
GACGTTTCCCTTTTCCTGACGTGCTAG,1.9
TCATGACTGGAGTCTGGAACTGTGCTA,-0.401
TTAGGTATCGGGTCTGGGTTAGTGCTA,5.56
GACGAACTGATTATCGAGACGTGCTAG,-0.262
TTAGGTCTCGGTATCGGTAAGTGCTAG,6.98
TATATTATATATTTATGTATGTGCTAG,0.0898
TCATCTCCAGGGTTTCTCACTGTGCTA,0.613
TTACGTATCGACTTTCGGTTAGTGCTA,5.44
GACGAACTGGGGTGTCGAGACGTGCTA,0.04
TCATATATCTTATCCTAACTGTGCTAG,1.19
TTAGGTCTCGGACTGTGTTAGTGCTAG,0.859
